Experimental data gathered from unrelated publications.
Each line is one published result; not all experiments were run side by side. Numbers after ± are the reported error.

Under “mean serum concentration”, `C[C@]12CC[C@@H]3c4ccc(O)cc4CC[C@H]3[C@@H]1C[C@@H](O)[C@@H]2O` is recorded as 0 ng/mL (GC-MS; breast cancer women on NSAI, serum; vaginal, 0.03 mg daily, 24 h, day 28).
The unbound AUC(0-24h) of `CN(C)C(=O)c1cc2cnc(Nc3ccc(N4CCNCC4)cn3)nc2n1C1CCCC1` is reported as 7640 ± 2160 ng·h/mL (CD1 nude mouse, non-tumour-bearing, plasma (unbound); oral, 100 mg/kg, microdialysis study).
With `NCCCn1c2c(c3ccc(N)cc3c1=O)C(=O)c1ccccc1-2` the serum concentration was roughly 830 ng/mL (Sprague-Dawley rat female, serum; oral, 40 mg/kg, 3 h).
With `Cc1nc2cccc(OCC(C)(C)C(=O)NC(C)C)c2c(N)c1C(=O)O` the Cmax was 62.4 ± 25.9 ng/mL (Sprague-Dawley rat, female, plasma; oral gavage, 30 mg/kg, day 1).
With `CCCC[C@H](NC(C)=O)C(=O)N[C@H]1CCC(=O)NC[C@@H](C(=O)N[C@@H](Cc2c[nH]c3ccccc23)C(N)=O)NC(=O)[C@H](CCCNC(=N)N)NC(=O)[C@@H](Cc2ccccc2)NC(=O)[C@H](Cc2c[nH]cn2)NC1=O` the Cmax was 1050 ng/mL (Sprague Dawley rats, male, plasma; subcutaneous, 25.0 mg/kg daily, day 28).
`CCCC[C@@H]1NC(=O)[C@@H](NC(=O)[C@H](CCC(=O)O)NC(=O)CNC(=O)CN2CCN(CC(=O)O)CCN(CC(=O)O)CCN(CC(=O)O)CC2)CCCCNC(=O)C[C@@H](C(N)=O)NC(=O)[C@H](C(C)C)NC(=O)[C@@H]2CCCN2C(=O)[C@H](CCCNC(=N)N)NC(=O)CNC(=O)[C@H](Cc2c[nH]c3ccccc23)NC(=O)[C@H](CCCNC(=N)N)NC(=O)[C@@H](Cc2ccccc2)NC(=O)[C@H](Cc2c[nH]cn2)NC(=O)[C@H](CCC(=O)O)NC1=O` [indium-111 labelled] has a tissue uptake of 0.03 ± 0.03 %ID/g (C57 mice, B16/F10 lung metastatic melanoma, blood; intravenous, 0.037 MBq, 4 h).
With `CONC(=N)c1ccc(-c2ccc(-c3ccc(C(=N)NOC)cc3)o2)cc1` the intrinsic clearance was 10 µL/min/mg (M1 formation by O-demethylation, substrate; individual human intestinal microsomes; Vmax over Km).
For `C=CC(=O)N1CCC(CNc2ncnc(N)c2-c2ccc(Oc3ccccc3)cc2)CC1`, the Vz/F was 621 L (human, plasma; oral, 25 mg single dose, geometric mean).
`Cn1c(=O)c2c(ncn2C)n(C)c1=O` has a mean concentration of 1350 ± 612 nM (human, fasted baseline, cerebrospinal fluid).
With `CC[C@@]1(O)C(=O)OCc2c1cc1n(c2=O)Cc2cc3c(CN(C)C)c(O)ccc3nc2-1` the AUC(0-inf) was 102 ng·h/mL (human patients, plasma; oral, 4 mg, geometric mean, together with: pazopanib 800 mg).
`COc1cccc2c1C(=O)c1c(O)c3c(c(O)c1C2=O)C[C@@](O)(C(=O)CO)C[C@@H]3O[C@H]1C[C@H](N)[C@H](O)[C@H](C)O1` has a Tmax of 2 h (mouse, E0771 tumour-bearing, tumor; intravenous, 92 µmol/kg).
The EC20 of `CCCOC(=O)c1ccc(O)cc1` is reported as greater than 800 µM (mitochondrial swelling; BALB/cByJ female mouse liver mitochondria; 30 min, together with: succinate + rotenone; relative to: CaCl2 maximal swelling).
`O=c1[nH]c(=O)c(Cc2cccc(C(F)(F)F)c2)c([C@H]2CC[C@H](c3ccccc3)CC2)[nH]1` has an AUC(0-tau) of 1940 ng·h/mL (human, plasma; oral, 150 mg once daily, day 14, geometric mean).
`CC[C@H]1OC(=O)[C@H](C)[C@@H](O[C@H]2C[C@@](C)(OC)[C@@H](O)[C@H](C)O2)[C@H](C)[C@@H](O[C@@H]2O[C@H](C)C[C@H](N(C)C)[C@H]2O)[C@](C)(O)C[C@@H](C)C(=O)[C@H](C)[C@@H](O)[C@]1(C)O` has an EC20 of greater than 400 µM (cytochrome c release, ELISA; BALB/cByJ female mouse liver mitochondria; 30 min; relative to: alamethicin maximal release).
With `CC(C)(C)c1cc(NC(=O)Nc2ccc(Oc3ccnc4[nH]c(=O)cnc34)cc2F)n(-c2ccccc2)n1` the tumour concentration was roughly 7 µM (female NSG and nude mice, tumour; oral, 20 mg/kg, 1 h after last dose, end of therapy).
The AUCinf of `CC[C@H](C)[C@H](NC(=O)[C@H](CC(C)C)NC(=O)[C@H](Cc1c[nH]c2ccccc12)NC(=O)[C@H](C)NC(=O)[C@@H](NC(=O)[C@H](Cc1ccccc1)NC(=O)[C@H](CC(=O)O)NC(=O)[C@H](CCCNC(=N)N)NC(=O)[C@H](C)NC(=O)[C@H](C)NC(=O)[C@H](CC(C)C)NC(=O)[C@H](C)NC(=O)[C@H](CC(=O)O)NC(=O)[C@H](CC(C)C)NC(=O)[C@@H](NC(=O)[C@@H](NC(=O)[C@H](C)NC(=O)[C@H](CC(C)C)NC(=O)[C@H](CCC(=O)O)NC(=O)[C@H](CO)NC(=O)[C@H](CO)NC(=O)[C@H](Cc1ccccc1)NC(=O)[C@@H](NC(=O)CNC(=O)[C@H](CCC(=O)O)NC(=O)CNC(=O)[C@@H](N)Cc1cnc[nH]1)[C@@H](C)O)[C@@H](C)O)[C@@H](C)CC)[C@@H](C)CC)C(=O)N[C@@H](C)C(=O)N[C@H](C(=O)N[C@@H](CCCCN)C(=O)N[C@H](C(=O)N[C@H](C(=O)N[C@@H](CC(=O)O)C(=O)N[C@@H](CCCCN)C(=O)N[C@@H](CCCCN)C(=O)N[C@@H](CCCCN)C(=O)N[C@@H](CCCCN)C(=O)N[C@@H](CCCCN)C(=O)N[C@@H](CCCCN)C(N)=O)[C@@H](C)O)[C@@H](C)CC)[C@@H](C)O` is reported as 0.0405 µM·h (immunoaffinity LC-MS/MS; healthy human subjects, plasma; intravenous infusion, 1 mg single dose, infused over 15 min).
For `S=C(NCCCc1c[nH]cn1)NCCCN(Cc1ccc(Cl)c(Cl)c1)c1ccc(Br)cn1`, the concentration was 10.2 ng/mL (male C57BL/6 mouse, plasma; intraperitoneal, 30 mg/kg, 24 h).
With `CCc1cc2cc(OC)cc(C(=O)c3cc(Br)c(O)c(Br)c3)c2o1` the microsomal CLint was 8.5 µL/min/mg (metabolic stability; Sprague-Dawley rat, liver microsomes; 1 µM, pH 7.4).
`C[C@@H]1O[C@@H](OC[C@H]2O[C@@H](Oc3c(-c4ccc(OCCO)c(OCCO)c4)oc4cc(OCCO)cc(O)c4c3=O)[C@H](O)[C@@H](O)[C@@H]2O)[C@H](O)[C@H](O)[C@H]1O` has an EC20 of greater than 400 µM (mitochondrial swelling; BALB/cByJ female mouse liver mitochondria; 30 min, together with: succinate + rotenone; relative to: CaCl2 maximal swelling).
`N#Cc1ccnc(N2C(=O)CC[C@H]2C(=O)N(c2cncc(F)c2)[C@H](C(=O)NC2CC(F)(F)C2)c2ccccc2Cl)c1` — result for “accumulation ratio Cmax”: 1.69 (human newly diagnosed mIDH AML, plasma; oral, 500 mg once daily, together with: induction chemotherapy; relative to: cycle 1 day 14 over day 1).
For `Cn1c(-c2ccc(C(N)=O)cc2F)nnc1C(C)(C)Oc1c(F)cc(Cl)cc1F`, “Tmax range over subjects” read 2 to 4 h (young non-Japanese adults, plasma; oral, 50 mg single dose, day 1, high-dose multiple-dose study).
`COc1cc(C=CC(=O)O)ccc1OC1OC(C(=O)O)C(O)C(O)C1O` (stereo not drawn) has a mean concentration of 18.1 nM (human, fasted baseline, cerebrospinal fluid).
`CC[C@H](C)C(=O)O[C@H]1C[C@H](O)C=C2C=C[C@H](C)[C@H](CC[C@@H](O)C[C@@H](O)CC(=O)O)[C@H]21` gave an EC20 of greater than 200 µM (cytochrome c release, ELISA; BALB/cByJ female mouse liver mitochondria; 30 min; relative to: alamethicin maximal release).
`CN[C@H]1C(=O)N[C@@H]2Cc3ccc(cc3)Oc3cc4cc(c3O[C@@H]3O[C@H](C(=O)O)[C@@H](O)[C@H](O)[C@H]3NC(=O)CCCCCCCCC(C)C)Oc3ccc(cc3Cl)[C@@H](O)[C@@H]3NC(=O)[C@H](NC(=O)[C@@H]4NC(=O)[C@@H](NC2=O)c2cc(cc(O)c2Cl)Oc2cc1ccc2O)c1ccc(O)c(c1)-c1c(O[C@H]2O[C@H](CO)[C@@H](O)[C@H](O)[C@@H]2O)cc(O)cc1[C@@H](C(=O)NCCCN(C)C)NC3=O` gave a clearance of 42.2 mL/h (healthy Japanese subjects, plasma; intravenous infusion, 500 mg, 30 min infusion).
For `NC(=O)c1cnccn1`, the EC20 was greater than 400 µM (cytochrome c release, ELISA; BALB/cByJ female mouse liver mitochondria; 30 min; relative to: alamethicin maximal release).
`CN(CCOc1ccc(CC2SC(=O)NC2=O)cc1)c1ccccn1` (stereo not drawn) — result for “intrinsic hepatic clearance”: 746 L/h (parallel tube model; human; from oral clearance).
`Nc1ccn([C@@H]2O[C@H](CO)[C@@H](O)C2(F)F)c(=O)n1` gave an AUC(0-inf) of 11200 ± 2820 ng·h/mL (BALB/c mouse, female, plasma; intravenous, 4 mg/kg).
`CC(=O)O[C@H]1C(=O)[C@@]2(C)[C@H]([C@H](OC(=O)c3ccccc3)[C@]3(O)C[C@H](OC(=O)[C@H](O)[C@@H](NC(=O)c4ccccc4)c4ccccc4)C(C)=C1C3(C)C)[C@]1(OC(C)=O)CO[C@@H]1C[C@@H]2O`: “log intrinsic permeability” -6.63 (in situ brain perfusion; rat; no efflux inhibition).
For `O=c1ccc2ccccc2o1`, the EC20 was greater than 200 µM (mitochondrial swelling; BALB/cByJ female mouse liver mitochondria; 30 min, together with: succinate + rotenone; relative to: CaCl2 maximal swelling).
`Cc1cc(C)c2c(c1)[C@@H](N(Cc1cc(C(F)(F)F)cc(C(F)(F)F)c1)c1nnn(C)n1)CCCN2C[C@H]1CC[C@H](C(=O)O)CC1`: “AUC(0-tau) at steady state” 5620 ng·h/mL (human, dyslipidemic patients, plasma; oral, 100 mg daily, geometric mean, together with: simvastatin).
With `CC(C)C[C@H](NC(=O)[C@H](CCc1ccccc1)NC(=O)CN1CCOCC1)C(=O)N[C@@H](Cc1ccccc1)C(=O)N[C@@H](CC(C)C)C(=O)[C@@]1(C)CO1` the Vss was 140 L (LC-MS; human, plasma; intravenous push, 20 mg/m^2).
For `Cc1ccc(NC(=O)c2ccc(CN3CCN(C)CC3)cc2)cc1Nc1nccc(-c2cncc(-c3oncc3C)c2)n1`, the AUC(0-tau) was 50600 ng·h/mL (Parkinson's disease patients, plasma; oral, 100 mg once daily, day 1, 7-day dosing, mean).
For `O=C([O-])CN(CCN(CC(=O)[O-])CC(=O)O)CCN(CC(=O)[O-])CC(=O)O.[Gd+3]`, the relaxivity r1 was 3.8 mM⁻¹ s⁻¹ (phosphate buffer; pH 7.4, 37 °C, 60 MHz, 1.5 T).
`CC(C)C(=O)Nc1ccc([N+](=O)[O-])c(C(F)(F)F)c1` gave an EC20 of greater than 400 µM (cytochrome c release, ELISA; BALB/cByJ female mouse liver mitochondria; 30 min; relative to: alamethicin maximal release).
With `CC(=O)N[C@@H](Cc1ccccc1)C(=O)N[C@H]1CCCNC(=O)[C@H](CCCNC(=N)N)NC(=O)[C@H](Cc2c[nH]c3ccccc23)NC(=O)[C@@H](CC2CCCCC2)NC(=O)[C@@H]2CCCN2C1=O` the elimination half-life was 1.57 h (C57BL/6J mice, spinal cord; oral, 1 mg/kg).
The residue concentration of `CCOC1=CC(=O)C2=NC(C)(C)C=C(C)C2=C1` is reported as 29.4 ± 9.7 ng/g (LC-MS/MS; piglets, liver; oral, 50 mg/kg feed of ethoxyquin, 42 days, after glucuronidase).

For quick reference, copied from above:
For `Cn1c(-c2ccc(C(N)=O)cc2F)nnc1C(C)(C)Oc1c(F)cc(Cl)cc1F`, “Tmax range over subjects” read 2 to 4 h (young non-Japanese adults, plasma; oral, 50 mg single dose, day 1, high-dose multiple-dose study).
For `C=CC(=O)N1CCC(CNc2ncnc(N)c2-c2ccc(Oc3ccccc3)cc2)CC1`, the Vz/F was 621 L (human, plasma; oral, 25 mg single dose, geometric mean).
For `O=c1ccc2ccccc2o1`, the EC20 was greater than 200 µM (mitochondrial swelling; BALB/cByJ female mouse liver mitochondria; 30 min, together with: succinate + rotenone; relative to: CaCl2 maximal swelling).
`Cn1c(=O)c2c(ncn2C)n(C)c1=O` has a mean concentration of 1350 ± 612 nM (human, fasted baseline, cerebrospinal fluid).
With `CC(C)C[C@H](NC(=O)[C@H](CCc1ccccc1)NC(=O)CN1CCOCC1)C(=O)N[C@@H](Cc1ccccc1)C(=O)N[C@@H](CC(C)C)C(=O)[C@@]1(C)CO1` the Vss was 140 L (LC-MS; human, plasma; intravenous push, 20 mg/m^2).
